Measured values from different studies.
Every numbered part comes from another study and shows a few of its results, in no order.

Sample 1
Target: Histone acetyltransferase KAT6A, winged helix 1, GST fusion (KAT6A, Homo sapiens, UniProt Q92794, residues 1-85)
Technique: protein binding microarray
Form: double-stranded DNA, one strand shown
Sample: in vitro
Tested at: not given
Notes: 8-mer, flanks averaged, mean of 2 arrays, mostly near background
Reference: not given
Reading: higher = stronger binding
Target sequence (chain): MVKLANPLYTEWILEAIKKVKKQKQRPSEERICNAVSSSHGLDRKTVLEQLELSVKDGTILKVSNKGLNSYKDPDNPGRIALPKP
Sequence	E-score
ACAGGGGC	-0.056
ACACTATA	-0.0402
ACTGCGAC	0.158
CCTTGGAA	-0.221
AAAAAGCC	0.107
AGGCTGCA	-0.224
AGGCATGC	-0.0131
CAGTGATC	-0.0374
CTCAAACC	0.0234
AGGTGCTG	-0.223
TAATCGGA	-0.0401
GCCAACGA	-0.0354
ACTTGTGG	-0.171
GAAGGCCA	-0.138
AGCGACCT	0.0437
TCCGTCAA	0.117
ACTATTGC	-0.0208
TAGGCGGA	0.104
ACCAAATC	-0.208
AACCGGGG	0.243
CGAGAATA	-0.13
TACGCCCA	-0.0616
CACGACTG	0.0949
GCAATCAA	-0.206
GAACCTTC	-0.103

Sample 2
Target: PABPC1L2, full length, GST fusion (mouse, UniProt A0ABA7IW68)
Technique: RNAcompete
Form: RNA
Sample: in vitro
Tested at: 20 nM
Notes: 7-mer, probes averaged, single round
Reference: mean of 7-mers
Reading: higher = stronger binding
Construct (chain): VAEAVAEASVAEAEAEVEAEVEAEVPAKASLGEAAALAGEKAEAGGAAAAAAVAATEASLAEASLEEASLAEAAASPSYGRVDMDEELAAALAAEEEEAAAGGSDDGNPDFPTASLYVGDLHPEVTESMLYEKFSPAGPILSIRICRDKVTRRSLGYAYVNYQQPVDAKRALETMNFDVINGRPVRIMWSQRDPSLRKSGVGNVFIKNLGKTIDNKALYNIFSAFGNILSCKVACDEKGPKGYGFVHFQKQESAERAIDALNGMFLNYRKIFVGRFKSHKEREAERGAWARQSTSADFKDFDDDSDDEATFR
Sequence	7-mer Z-score
GGACAGU	0.0551
AAAGCUG	0.804
AACACAC	0.575
CUAAUAA	0.218
UGUAACA	-0.122
CCUACCC	-0.382
ACCAGAC	0.216
UUCAUCA	-0.356
UAGUAAU	-0.124
CAACUCC	-0.26
UGCGAAA	0.669
GAGCCGG	-0.132
GAGCUGG	0.117
UCACCUU	-0.335
CACGGUU	-0.0971
AGAAAUG	0.657
UGAGACG	-0.0536
GUGCAAC	-0.0935
GGUUCGG	-0.168

Sample 3
Target: Interferon regulatory factor 7, full length, phosphomimetic (IRF7, Homo sapiens, UniProt Q92985, residues 1-503, S471D/S472D/S475D/S476D/S477D/S483D/S484D/S487D)
Technique: protein-binding microarray
Form: double-stranded DNA, one strand shown
Sample: in vitro
Tested at: 2200 nM top
Notes: 60-bp whole probe
Added: salmon DNA 0.4 mg/ml
Reference: random background probes
Reading: higher = stronger binding
Constant ends, left off below: GCCTAGCAC … GTCTTGATTCGCTTGACGCTGCTG
Target sequence (chain): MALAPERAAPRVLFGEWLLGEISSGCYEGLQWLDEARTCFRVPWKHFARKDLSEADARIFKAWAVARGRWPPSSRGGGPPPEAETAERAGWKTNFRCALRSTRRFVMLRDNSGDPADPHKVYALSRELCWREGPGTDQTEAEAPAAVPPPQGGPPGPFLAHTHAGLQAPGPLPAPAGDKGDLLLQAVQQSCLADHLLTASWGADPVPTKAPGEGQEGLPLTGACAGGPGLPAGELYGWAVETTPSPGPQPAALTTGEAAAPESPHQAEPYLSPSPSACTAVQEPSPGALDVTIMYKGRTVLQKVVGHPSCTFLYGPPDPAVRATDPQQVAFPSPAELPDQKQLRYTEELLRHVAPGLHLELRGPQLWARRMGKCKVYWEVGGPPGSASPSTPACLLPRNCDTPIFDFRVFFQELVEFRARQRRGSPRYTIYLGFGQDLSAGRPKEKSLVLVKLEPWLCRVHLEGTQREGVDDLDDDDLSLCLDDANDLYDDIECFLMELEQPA
Sequence	fitted relative affinity
TCAATTTTGGTTTTCATACTGTGCTAG	2.78 z-score
GTCGGTTTCCTTTCCCTGACGTGCTAG	6.22 z-score
TTAGGACTTGGTATCGGTTAGTGCTAG	0.468 z-score
TCACGTAAGCAAAAATGACTGTGCTAG	-0.38 z-score
TTAGATATCGGTCTCGATTAGTGCTAG	0.443 z-score
TTAGGTCTCGTTCTCCTTTAGTGCTAG	1.87 z-score
TTAGGACTGGGGTTTCGTTTAGTGCTA	2.12 z-score
TTAGGTATCCTTATCATTTAGTGCTAG	0.46 z-score
GACGAACTGGGTCTCGAGACGTGCTAG	-0.17 z-score
TTCGGACTGCTACTGCTTTAGTGCTAG	0.082 z-score
TTAAGTTCCGGTTTCGGTTAGTGCTAG	9.7 z-score
ACTGCTCTGTTGCCTGGTCCTGTGCTA	1.33 z-score
TGCTTTTTAGAAATTTTTTTTGTGCTA	-0.0995 z-score
TTAGGTATCGGTCTCGGGTAGTGCTAG	0.586 z-score
TTAGGTATCGGGTACCGGTTAGTGCTA	-0.0851 z-score
TTGTGTCTGGGCTTTTTCCCCGTGCTA	0.134 z-score
TCAGTTTTCTTTTCATTACTGTGCTAG	5.57 z-score
TTGGCTTTCCTTTATGTCCTGTGCTAG	1.76 z-score
CTTTAACTCATTCTCTGTTTGTGCTAG	1.59 z-score
GACGGTTCCTGTTTCGGGACGTGCTAG	3.37 z-score
TTAGGTATCGGTTTCGTTTAGTGCTAG	6.51 z-score

Sample 4
Target: Centromere-binding protein 1, full length, N-terminal tag (CBF1, Saccharomyces cerevisiae, UniProt P17106, residues 1-351)
Chain of UniProt P17106 (whole entry, looked up): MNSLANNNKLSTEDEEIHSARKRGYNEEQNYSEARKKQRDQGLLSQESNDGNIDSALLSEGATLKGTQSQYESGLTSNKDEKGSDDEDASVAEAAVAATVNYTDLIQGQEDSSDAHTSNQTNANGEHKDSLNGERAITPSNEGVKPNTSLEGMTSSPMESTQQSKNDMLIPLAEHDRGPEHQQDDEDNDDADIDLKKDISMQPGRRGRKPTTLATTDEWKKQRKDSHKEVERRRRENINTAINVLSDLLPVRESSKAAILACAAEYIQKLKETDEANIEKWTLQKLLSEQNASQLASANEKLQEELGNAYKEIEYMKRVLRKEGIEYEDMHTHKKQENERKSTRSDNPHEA
Technique: protein-binding microarray
Form: double-stranded DNA, one strand shown
Sample: in vitro
Tested at: 0.8 µM
Notes: whole 60-bp probe, no competitor
Reading: higher = stronger binding
Constant ends, left off below: … GTCTTGATTCGCTTGACGCTGCTG
Sequence	fluorescence intensity [a.u.]
CTACAGCATATACGTCACGTTCTGCTCATCGTGTTC	2010
CTAAATCTCTTGCAATTGGTGTCACTGCCACATTTC	560
CTAAAATTTCCGAATCACATGTTCGTAAAACAATTC	4620
GAACGTCAAAATTAACACATGAGTCTACTGAATTAG	585
TGTACGAAGCTATGTCATGTGGATATAGTAGTTAGG	1020
GAATAAATGAAAAGAAACGTGCAACGCATTTATTAG	629
TGTACGAAGCTATGTGACTTGTATATAGTAGTTAGG	575
CTATTGTGCGTTTTTCACGTTGACGTGCTTCTTTTC	599
GAAGTCCACGCCAGTTGCGTGGCCTATTACTATTAG	492
GAAATAAAAAGGGCAATCATGATGGCCATCGACTAG	488
GAATGCTTTTCAAATCACGAACGCAATCAGTACTAG	656
CTACGTATACGTTTAAGTGTGATTGCGCCTATTTTC	541
CTATTTTGGCGGAATGGTGTGAGTGGTTCACTTTTC	497
CTAAACGACTATATGCACGTTGCAGTATTGTTCTTC	713
GAAAAGATTGTACGTAAGGTGACAAGCTATTTTTAG	560
GAACGAGTGATGCGACACGTGATAGGTAGTAACTAG	9200
TGTACGAAGCTATTTCATAAGTCTATAGTAGTTAGG	464
CTATCACTATGCACTGATGACGTCATTGTCAATTTC	546

A few entries again (sample 3):
Sequence	fitted relative affinity
GACGAACTGGGTCTCGAGACGTGCTAG	-0.17 z-score
TGCTTTTTAGAAATTTTTTTTGTGCTA	-0.0995 z-score
TCACGTAAGCAAAAATGACTGTGCTAG	-0.38 z-score
TTAGATATCGGTCTCGATTAGTGCTAG	0.443 z-score
